Results collected from several papers.
Protocols differ between the studies behind these lines. ± marks the error that the study gave.
rep main protease: Replicase polyprotein 1ab, main protease (rep, Severe acute respiratory syndrome coronavirus 2, UniProt P0DTD1)
Spike glycoprotein: Spike glycoprotein (Severe acute respiratory syndrome coronavirus 2, UniProt P0DTC2)

`CN(C)CC[C@@H](c1ccc(Cl)cc1)c1ccccn1` has an IC50 of over 10 µM (SARS-CoV-2; viral replication, anti-nucleoprotein immunostaining; Vero E6).
`CCOc1ccc2cc(C(=O)Nc3nc4ccccc4[nH]3)[nH]c2c1` has an IC50 of over 10 µM (SARS-CoV-2; cell-cell fusion; HeLa-ACE2, Delta spike).
The inhibition of `CCOC(=O)[C@H]1O[C@@H]1C(=O)N[C@@H](CC(C)C)C(=O)NCCC(C)C` is reported as 1.96% (rep main protease; reporter gene (mKate2), inhibitor; 20 µM).
The IC50 of `CCCCCCNC(=O)n1cc(F)c(=O)[nH]c1=O` is reported as over 2 µM (SARS-CoV-2; viral replication; Huh-7).
With `OCCN1CCN(CCCN2c3ccccc3C=Cc3ccccc32)CC1` the IC50 was over 10 µM (SARS-CoV-2; viral replication, anti-nucleoprotein immunostaining; Vero E6).
The IC50 of `CC(C)(C)OC(=O)N[C@H]1CCCCC/C=C\[C@@H]2C[C@@]2(C(=O)NS(=O)(=O)C2CC2)NC(=O)[C@@H]2C[C@@H](OC(=O)N3Cc4cccc(F)c4C3)CN2C1=O` is reported as over 50 µM (SARS-CoV-2; viral replication, nucleoprotein immunofluorescence; Vero E6).
With `O=C(CSc1nc2c(c(=O)[nH]1)CCCC2)Nc1ccc(C(=O)O)cc1` the IC50 was 530 µM (SARS-CoV-2; viral cytopathic effect; Vero E6, NRC-03-nhCoV).
With `Cc1c(CN2CCC(Nc3ncnc4sc(CC(F)(F)F)cc34)CC2)ccc2c1cc(C#N)n2Cc1cn[nH]c1` the IC50 was over 2 µM (SARS-CoV-2; viral replication; Huh-7).
`O=C(CSc1nc2ccccc2c(=O)[nH]1)NNC(=O)c1ccc([N+](=O)[O-])cc1` has an IC50 of 121 µM (SARS-CoV-2; viral cytopathic effect; Vero E6, NRC-03-nhCoV).
The IC50 of `COc1cc2c(cc1OC)C(=O)C(CC1CCN(Cc3ccccc3)CC1)C2` (stereo not drawn) is reported as over 10 µM (SARS-CoV-2; viral replication, anti-nucleoprotein immunostaining; Vero E6).
For `COc1ccc2c(O[C@@H]3C[C@H]4C(=O)N[C@]5(C(=O)NS(=O)(=O)C6CC6)C[C@H]5/C=C\CCCCN(C)C(=O)[C@@H]4C3)cc(-c3nc(C(C)C)cs3)nc2c1C`, the IC50 was 4.2 µM (SARS-CoV-2; viral replication, nucleoprotein immunofluorescence; Vero E6).
`CCCC(=O)Nc1ccc(OCC(O)CNC(C)C)c(C(C)=O)c1` (stereo not drawn) has an IC50 of over 2 µM (SARS-CoV-2; viral replication; Huh-7).
The IC50 of `COc1ccccc1C(=O)NNC(=O)CSc1nc2ccccc2c(=O)[nH]1` is reported as 259 µM (SARS-CoV-2; viral cytopathic effect; Vero E6, NRC-03-nhCoV).
`CN(C)CCCN1c2ccccc2Sc2ccc(Cl)cc21` has an IC50 of over 10 µM (SARS-CoV-2; viral replication, anti-nucleoprotein immunostaining; Vero E6).
For `CC(C)(C)[C@@H]1NC(=O)O[C@@H]2CCC[C@H]2OC/C=C/C(F)(F)c2nc3ccccc3nc2O[C@@H]2C[C@@H](C(=O)N[C@]3(C(=O)NS(=O)(=O)C4(C)CC4)C[C@H]3C(F)F)N(C2)C1=O`, the IC50 was over 50 µM (SARS-CoV-2; viral replication, nucleoprotein immunofluorescence; Vero E6).
For `O=C(CN1CCC(CN2Cc3ccccc3C2=O)CC1)c1ccc(F)cc1`, the IC50 was over 10 µM (SARS-CoV-2; viral replication; Vero E6; inactive set pIC50 4).
`COc1cc(-n2c(=S)[nH]c3ccccc3c2=O)c(Cl)cc1Cl` gave an IC50 of about 0.832 µM (SARS-CoV-2; viral cytopathic effect; Vero E6; 3 days).
The Kd of `CC(C)=CCC[C@](C)(O[C@@H]1O[C@H](CO)[C@@H](O)[C@H](O)[C@H]1O)[C@H]1CC[C@]2(C)[C@@H]1[C@H](O)C[C@@H]1[C@@]3(C)CC[C@H](O[C@@H]4O[C@H](CO)[C@@H](O)[C@H](O)[C@H]4O)C(C)(C)[C@@H]3CC[C@]12C` is reported as 27.1 µM (Spike glycoprotein; binding, BLI).
The steady-state CL/F of `CC[C@H](C)[C@H](NC(=O)[C@H](CC(C)C)NC(=O)[C@H](Cc1c[nH]c2ccccc12)NC(=O)[C@H](CCC(N)=O)NC(=O)[C@@H](NC(=O)[C@H](Cc1ccccc1)NC(=O)[C@H](C)NC(=O)[C@H](CCCCNC(=O)COCCOCCNC(=O)COCCOCCNC(=O)CC[C@H](NC(=O)CCCCCCCCCCCCCCCCCCC(=O)O)C(=O)O)NC(=O)[C@H](CCC(N)=O)NC(=O)[C@H](C)NC(=O)[C@@H](NC(=O)[C@H](CCCCN)NC(=O)[C@H](CC(=O)O)NC(=O)[C@H](CC(C)C)NC(=O)C(C)(C)NC(=O)[C@@H](NC(=O)[C@H](CO)NC(=O)[C@H](Cc1ccc(O)cc1)NC(=O)[C@H](CC(=O)O)NC(=O)[C@H](CO)NC(=O)[C@@H](NC(=O)[C@H](Cc1ccccc1)NC(=O)[C@@H](NC(=O)CNC(=O)[C@H](CCC(=O)O)NC(=O)C(C)(C)NC(=O)[C@@H](N)Cc1ccc(O)cc1)[C@@H](C)O)[C@@H](C)O)[C@@H](C)CC)[C@@H](C)CC)C(C)C)C(=O)N[C@@H](C)C(=O)NCC(=O)NCC(=O)N1CCC[C@H]1C(=O)N[C@@H](CO)C(=O)N[C@@H](CO)C(=O)NCC(=O)N[C@@H](C)C(=O)N1CCC[C@H]1C(=O)N1CCC[C@H]1C(=O)N1CCC[C@H]1C(=O)N[C@@H](CO)C(N)=O` is reported as 0.933 mL/min (human, plasma; subcutaneous, once weekly, multiple dose).
For `O=C(c1ccccc1)c1ccc2n1CCC2C(=O)O` (stereo not drawn), the IC50 was over 2 µM (SARS-CoV-2; viral replication; Huh-7).
For `Cn1cnc(Cn2c(=O)[nH]/c(=N\c3cc4cn(C)nc4cc3Cl)n(Cc3cc(F)c(F)cc3F)c2=O)n1`, “patients with adverse event” read 12.5% (human, mild renal impairment; oral, 375 mg, vessel puncture site haemorrhage TEAE, Mild severity).
With `Cc1cn2nc([C@@H]3CCCCN3C(=O)c3cc(Cl)ccc3NS(C)(=O)=O)cc2nc1N1CC[C@H](N)C1` the IC50 was 7.7 µM (SARS-CoV-2; viral replication; Vero E6).
With `Nc1ncnc2c([C@@H]3N[C@H](CO)[C@@H](O)[C@H]3O)c[nH]c12` the inhibition was 96.9% (Marburg virus; viral RNA in cell lysate; HeLa, Musoke; 50 µM, 1 h).
The IC50 of `O=C(CSc1nc2ccccc2c(=O)[nH]1)Nc1cccc(C(=O)O)c1` is reported as 79.7 µM (SARS-CoV-2; viral cytopathic effect; Vero E6, NRC-03-nhCoV).
With `O=S(=O)(NC1CCC(c2cc(F)ccc2F)(S(=O)(=O)c2ccc(Cl)cc2)CC1)C(F)(F)F` (stereo not drawn) the inhibition was -0.115% (rep main protease; reporter gene (mKate2), inhibitor; HEK293T; 20 µM).
`mycosubtilin` has an IC50 of 2.8 ± 0.4 µg/mL (SARS-CoV-2; viral replication; Vero; 24 h).
The IC50 of `O=C(CSc1nc2ccccc2c(=O)[nH]1)NNC(=O)c1ccccc1Cl` is reported as 458 µM (SARS-CoV-2; viral cytopathic effect; Vero E6, NRC-03-nhCoV).
With `CC(C)(C)c1cnc(CSc2cnc(NC(=O)C3CCN(CC(=O)NCCOCCOCCOCCNc4cccc5c4C(=O)N(C4CCC(=O)NC4=O)C5=O)CC3)s2)o1` (stereo not drawn) the IC50 was under 0.16 µM (SARS-CoV-2; viral replication).
`COc1ccc([C@@]23Oc4cc(OC)cc(OC)c4[C@@]24NC(C)=N[C@@]4(O)[C@H](C(=O)N(C)OC)[C@H]3c2ccccc2)cc1` gave an IC50 of 0.005 µM (SARS-CoV-2; cell-based).
`ginsenoside Rb1` gave an IC50 of about 1.4 µM (SARS-CoV-2; viral cytopathic effect; Vero E6 cells; 3 days).
For `Cc1ccc(C(=O)NNC(=O)CSc2nc3ccccc3c(=O)[nH]2)cc1`, the IC50 was 127 µM (SARS-CoV-2; viral cytopathic effect; Vero E6, NRC-03-nhCoV).
`OCC1(O)COc2cc(O)ccc2-c2cc(O)c(O)cc2C1` (stereo not drawn) has a Kd of 61.1 µM (Spike glycoprotein; binding, biolayer interferometry).
For `Oc1c(Cl)cc(Cl)c2cccnc12`, the IC50 was over 2 µM (SARS-CoV-2; viral replication; Huh-7).
`CC(=O)Nc1nc(C)c(-c2ccc(Cl)c(S(=O)(=O)NCCO)c2)s1` gave an IC50 of about 0.00551 µM (SARS-CoV-2; viral cytopathic effect; Vero E6; 3 days).
For `O=C(O)c1ccc2nc(-c3cc(Cl)cc(Cl)c3)oc2c1`, the IC50 was over 2 µM (SARS-CoV-2; viral replication; Huh-7).
`CCCN(CCC)CCc1ccc(OC)c(OCCc2ccccc2)c1` gave an IC50 of 4.07 µM (SARS-CoV-2; viral replication, anti-NP immunostaining; Vero E6).
`O=C(Nc1ccc([N+](=O)[O-])cc1Cl)c1cc(Cl)ccc1O` gave an IC50 of under 1 µM (SARS-CoV-2; viral replication; Vero E6).
`CCC(CC)COC(=O)[C@H](C)N[P@](=O)(OC[C@H]1O[C@@](C#N)(c2ccc3c(N)ncnn23)[C@H](O)[C@@H]1O)Oc1ccccc1` has an IC50 of 7.39 µM (SARS-CoV-2; cytopathic effect; Vero C1008).
`CNC(=O)[C@@H](NC(=O)[C@H](CC(C)C)[C@H](O)C(=O)NO)C(C)(C)C` has a survival of 0% (PB population, mouse; intravenous, 120 µg/mouse, 24 h, given 0 min after venom, added: Daboia russelii venom 2.5 x LD50 i.p.).
The AC50 of `CN(C)c1ccc(-c2nc(-c3cccs3)c(-c3cccs3)[nH]2)cc1` is reported as 14.1 µM (SARS-CoV-2; cytopathic effect, cell-based CPE; USA_WA1/2020).
With `O=C(CSc1nc2c(c(=O)[nH]1)CCCC2)NNC(=O)c1ccc(Cl)cc1` the IC50 was 26.4 µM (SARS-CoV-2; viral cytopathic effect; Vero E6, NRC-03-nhCoV).
For `CCOC(=O)/C=C/[C@H](C[C@@H]1CCNC1=O)NC(=O)[C@@H](CC(=O)[C@@H](NC(=O)c1cc(C)on1)C(C)C)Cc1ccc(F)cc1`, the IC50 was 34.1 µM (SARS-CoV-2; viral replication; Vero C1008; 48 h).
With `CCN1CCCC1CNC(=O)c1cc(S(=O)(=O)CC)c(N)cc1OC` (stereo not drawn) the IC50 was over 10 µM (SARS-CoV-2; viral replication; A549 expressing ACE2; inactive set pIC50 4).
`NCCCC(N)(C(=O)O)C(F)F` (stereo not drawn) gave an IC50 of 230 µM (SARS-CoV-2; viral replication).
For `C[C@]12CCC3=C4CCC(=O)C=C4CC[C@H]3[C@@H]1CC[C@@]2(O)CC#N`, the IC50 was over 2 µM (SARS-CoV-2; viral replication; Huh-7).
The IC50 of `Cc1nccn1CC1CCc2c(c3ccccc3n2C)C1=O` (stereo not drawn) is reported as over 10 µM (SARS-CoV-2; viral replication, RT-qPCR; A549 expressing ACE2).
For `O=C(CSc1nc2c(c(=O)[nH]1)CCCC2)NNC(=O)c1ccccc1Cl`, the IC50 was 460 µM (SARS-CoV-2; viral cytopathic effect; Vero E6, NRC-03-nhCoV).
`C[C@H](Nc1ncnc2nc[nH]c12)c1cc2cccc(Cl)c2c(=O)n1-c1ccccc1` has an IC50 of over 2 µM (SARS-CoV-2; viral replication; Huh-7).

Repeated from above:
For `CC(C)(C)[C@@H]1NC(=O)O[C@@H]2CCC[C@H]2OC/C=C/C(F)(F)c2nc3ccccc3nc2O[C@@H]2C[C@@H](C(=O)N[C@]3(C(=O)NS(=O)(=O)C4(C)CC4)C[C@H]3C(F)F)N(C2)C1=O`, the IC50 was over 50 µM (SARS-CoV-2; viral replication, nucleoprotein immunofluorescence; Vero E6).
The IC50 of `O=C(CSc1nc2ccccc2c(=O)[nH]1)NNC(=O)c1ccccc1Cl` is reported as 458 µM (SARS-CoV-2; viral cytopathic effect; Vero E6, NRC-03-nhCoV).
`mycosubtilin` has an IC50 of 2.8 ± 0.4 µg/mL (SARS-CoV-2; viral replication; Vero; 24 h).
`CCCN(CCC)CCc1ccc(OC)c(OCCc2ccccc2)c1` gave an IC50 of 4.07 µM (SARS-CoV-2; viral replication, anti-NP immunostaining; Vero E6).
`C[C@H](Nc1ncnc2nc[nH]c12)c1cc2cccc(Cl)c2c(=O)n1-c1ccccc1` has an IC50 of over 2 µM (SARS-CoV-2; viral replication; Huh-7).
